{"data": "Measured values pooled from the literature", "note": "Each numbered part is a random draw from the data of one study; scales do not carry over between parts.", "UniProt P54762, sequence (whole entry, looked up)": "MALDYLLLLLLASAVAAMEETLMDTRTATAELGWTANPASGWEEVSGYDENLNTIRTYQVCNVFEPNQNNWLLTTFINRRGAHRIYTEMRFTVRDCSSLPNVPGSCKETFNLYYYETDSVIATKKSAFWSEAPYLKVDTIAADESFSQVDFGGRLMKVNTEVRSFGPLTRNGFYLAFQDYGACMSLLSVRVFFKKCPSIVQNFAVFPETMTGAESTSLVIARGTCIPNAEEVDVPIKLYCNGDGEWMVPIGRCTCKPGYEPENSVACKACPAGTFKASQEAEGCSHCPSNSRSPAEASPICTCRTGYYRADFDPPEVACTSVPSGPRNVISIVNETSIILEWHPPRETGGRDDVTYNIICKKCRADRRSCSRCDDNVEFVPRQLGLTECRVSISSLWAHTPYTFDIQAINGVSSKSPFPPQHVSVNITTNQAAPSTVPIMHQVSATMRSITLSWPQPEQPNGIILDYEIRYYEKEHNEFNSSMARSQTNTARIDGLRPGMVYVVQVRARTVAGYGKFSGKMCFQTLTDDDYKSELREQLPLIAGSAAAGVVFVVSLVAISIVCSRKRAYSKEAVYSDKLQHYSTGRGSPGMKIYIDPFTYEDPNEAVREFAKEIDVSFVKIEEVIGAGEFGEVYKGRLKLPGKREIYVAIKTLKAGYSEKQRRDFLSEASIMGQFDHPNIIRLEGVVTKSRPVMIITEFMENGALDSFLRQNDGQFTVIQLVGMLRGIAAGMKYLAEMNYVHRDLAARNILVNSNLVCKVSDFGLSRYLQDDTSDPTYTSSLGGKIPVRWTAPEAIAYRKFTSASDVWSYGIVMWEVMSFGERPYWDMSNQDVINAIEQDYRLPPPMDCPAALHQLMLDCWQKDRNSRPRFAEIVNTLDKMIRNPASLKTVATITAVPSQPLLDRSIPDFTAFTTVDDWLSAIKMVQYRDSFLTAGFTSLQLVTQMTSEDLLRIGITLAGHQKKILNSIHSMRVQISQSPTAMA", "UniProt P06493, sequence (whole entry, looked up)": "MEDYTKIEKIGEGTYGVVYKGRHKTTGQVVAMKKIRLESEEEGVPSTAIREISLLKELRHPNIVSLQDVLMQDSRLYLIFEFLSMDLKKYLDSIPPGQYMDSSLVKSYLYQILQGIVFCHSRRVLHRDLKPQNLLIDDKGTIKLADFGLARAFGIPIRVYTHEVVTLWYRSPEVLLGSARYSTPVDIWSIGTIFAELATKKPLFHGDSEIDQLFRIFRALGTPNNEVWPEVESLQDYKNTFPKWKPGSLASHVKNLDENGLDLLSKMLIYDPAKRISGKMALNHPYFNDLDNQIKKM", "UniProt Q13554, sequence (whole entry, looked up)": "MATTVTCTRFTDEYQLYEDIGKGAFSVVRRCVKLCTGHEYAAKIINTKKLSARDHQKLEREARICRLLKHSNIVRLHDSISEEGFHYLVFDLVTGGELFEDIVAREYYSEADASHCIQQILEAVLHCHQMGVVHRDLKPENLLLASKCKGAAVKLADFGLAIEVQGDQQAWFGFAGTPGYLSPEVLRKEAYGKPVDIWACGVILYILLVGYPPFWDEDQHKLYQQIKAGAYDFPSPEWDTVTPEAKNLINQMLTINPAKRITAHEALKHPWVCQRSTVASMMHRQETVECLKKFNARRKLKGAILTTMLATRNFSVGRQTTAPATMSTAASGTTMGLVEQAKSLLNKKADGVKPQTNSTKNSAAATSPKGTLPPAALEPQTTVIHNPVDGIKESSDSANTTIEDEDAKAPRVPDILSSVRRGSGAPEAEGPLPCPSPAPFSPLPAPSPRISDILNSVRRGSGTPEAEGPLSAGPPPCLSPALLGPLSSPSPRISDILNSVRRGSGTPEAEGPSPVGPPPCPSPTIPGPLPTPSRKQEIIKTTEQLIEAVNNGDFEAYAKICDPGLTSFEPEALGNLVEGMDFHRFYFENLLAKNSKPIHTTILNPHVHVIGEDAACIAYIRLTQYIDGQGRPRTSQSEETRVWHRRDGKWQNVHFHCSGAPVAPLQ"}
{"data": "Block 1", "target": "Histamine H4 receptor (HRH4, Homo sapiens, UniProt Q9H3N8)", "observed": "ligand displacement", "tested at": "10 µM", "UniProt Q9H3N8, sequence (whole entry, looked up)": "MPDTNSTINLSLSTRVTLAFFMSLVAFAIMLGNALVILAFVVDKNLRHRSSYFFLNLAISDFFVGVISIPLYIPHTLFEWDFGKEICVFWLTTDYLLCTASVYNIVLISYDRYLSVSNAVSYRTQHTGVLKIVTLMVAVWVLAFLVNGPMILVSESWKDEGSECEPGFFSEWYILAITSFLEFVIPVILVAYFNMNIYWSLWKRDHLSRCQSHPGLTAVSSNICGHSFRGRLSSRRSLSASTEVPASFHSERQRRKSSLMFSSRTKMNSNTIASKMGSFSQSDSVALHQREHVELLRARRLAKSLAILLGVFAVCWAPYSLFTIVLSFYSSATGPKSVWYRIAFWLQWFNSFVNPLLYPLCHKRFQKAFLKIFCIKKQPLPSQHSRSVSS"}
{"Compound": "COc1cc(-c2cn(C3CCc4c(F)cccc4N(CC(F)(F)F)C3=O)nn2)ccc1-n1cnc(C)c1 (stereo not shown)", "inhibition [%]": -2.49}
{"Compound": "CNC(=O)Nc1ccc2c(c1)CC[C@]21OC(=O)N(CC(=O)N(Cc2ccc(F)cc2)[C@@H](C)C(F)(F)F)C1=O", "inhibition [%]": 10.1}
{"Compound": "O=S(=O)(NC1CCC(c2cc(F)ccc2F)(S(=O)(=O)c2ccc(Cl)cc2)CC1)C(F)(F)F (stereo not shown)", "inhibition [%]": -14.7}
{"Compound": "CC1=C(C#N)C(c2ccc3[nH]nc(C)c3c2)C(C#N)=C(C)N1", "inhibition [%]": -11.3}
{"Compound": "O=C1NC(c2ccccn2)Sc2ccccc21 (stereo not shown)", "inhibition [%]": 1.89}
{"Compound": "CN1CCN(C(=O)C(C)(C)c2ccc(C(=O)Nc3cn4cc(-c5cc(C(C)(C)C)cc(C(C)(C)C)c5)ccc4n3)cc2)CC1", "inhibition [%]": 31.9}
{"Compound": "O=C(N[C@H]1CCCCC/C=C\\C2C[C@@]2(C(=O)O)NC(=O)[C@@H]2C[C@@H](Oc3ccncc3)CN2C1=O)OC1CCCC1 (stereo partly shown)", "inhibition [%]": -8.87}
{"Compound": "Cc1ccccc1Oc1cc(-n2c(=O)cc(C(F)(F)F)[nH]c2=O)c2ccccc2c1Cl", "inhibition [%]": -6.41}
{"Compound": "CN([C@@H]1CCc2c(CC(=O)O)c3ccccc3n2C1)S(=O)(=O)c1ccc(F)cc1", "inhibition [%]": 25.9}
{"Compound": "NC(=O)c1ccc2nc(-c3ccc(C4(N)CCC4)cc3)c(-c3ccccc3)n2n1", "inhibition [%]": -24.6}
{"Compound": "Nc1nc(NCc2ccccc2)nc(-c2cccc(CO)c2)n1", "inhibition [%]": 10.8}
{"Compound": "CS(=O)(=O)N1CCCC(NC(=O)[C@H](CCC2CCCCC2)NC(=O)c2ccc(CNC(=O)c3cnc4ccccn34)cc2)C1 (stereo partly shown)", "inhibition [%]": -7.56}
{"Compound": "CCOc1ccc(S(=O)(=O)Nc2ccc(Cl)cc2C#Cc2cnc(C(=O)O)cc2OC)c2ncccc12", "inhibition [%]": -39.4}
{"Compound": "O=C(Nc1ccc(Oc2ccc(F)cc2)cc1)N1CCc2ncccc2[C@H]1c1ccc(F)cc1", "inhibition [%]": 7.56}
{"data": "Block 2", "target": "Sal-like protein 4, full length isoform B (SALL4, Homo sapiens, UniProt Q9UJQ4-2, residues 1-616)", "method": "universal PBM", "form": "double-stranded DNA, one strand shown", "medium": "in vitro", "tested at": "not given", "setting": "8-mer, flanks averaged, mean of replicates", "reading": "higher = stronger binding"}
{"Oligonucleotide": "CCGCAGTC", "E-score": -0.269}
{"Oligonucleotide": "CTACGGCC", "E-score": -0.339}
{"Oligonucleotide": "ATCAGAAT", "E-score": 0.0402}
{"Oligonucleotide": "TCAAATCA", "E-score": 0.191}
{"Oligonucleotide": "AATACGCT", "E-score": 0.233}
{"Oligonucleotide": "CTCCACGC", "E-score": -0.157}
{"Oligonucleotide": "GTGAGAGA", "E-score": -0.0423}
{"Oligonucleotide": "AGAGACGC", "E-score": -0.202}
{"data": "Block 3", "target": "Eukaryotic initiation factor 4A-I (EIF4A1, Homo sapiens, UniProt P60842, residues 1-406, full length assumed)", "method": "RNA Bind-n-Seq", "form": "RNA", "medium": "in vitro", "tested at": "90 pmol", "setting": "4-mer, random 30-nt RNA, single round", "with": "3 µM iPr-DMDA-PatA, 2 mM ADP, 2 mM phosphate", "reference": "input library", "reading": "higher = stronger binding", "UniProt P60842, sequence (whole entry, looked up)": "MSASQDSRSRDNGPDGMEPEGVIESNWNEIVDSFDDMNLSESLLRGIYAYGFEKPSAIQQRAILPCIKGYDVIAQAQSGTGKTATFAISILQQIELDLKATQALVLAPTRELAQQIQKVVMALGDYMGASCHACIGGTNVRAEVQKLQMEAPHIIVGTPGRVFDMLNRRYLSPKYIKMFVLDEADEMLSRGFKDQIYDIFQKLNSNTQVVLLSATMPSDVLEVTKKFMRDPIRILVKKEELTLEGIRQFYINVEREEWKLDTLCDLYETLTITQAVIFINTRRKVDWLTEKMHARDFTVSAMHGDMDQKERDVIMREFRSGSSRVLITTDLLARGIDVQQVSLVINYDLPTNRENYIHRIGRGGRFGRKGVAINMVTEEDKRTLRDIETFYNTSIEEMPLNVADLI"}
{"Oligonucleotide": "CCAC", "4-mer enrichment": "0.997 fold"}
{"Oligonucleotide": "CGAC", "4-mer enrichment": "1.09 fold"}
{"Oligonucleotide": "UGGU", "4-mer enrichment": "0.85 fold"}
{"Oligonucleotide": "CUUA", "4-mer enrichment": "1.08 fold"}
{"Oligonucleotide": "UUUG", "4-mer enrichment": "0.985 fold"}
{"Oligonucleotide": "GCUG", "4-mer enrichment": "0.726 fold"}
{"Oligonucleotide": "UAAC", "4-mer enrichment": "1.24 fold"}
{"Oligonucleotide": "CCGA", "4-mer enrichment": "1.07 fold"}
{"data": "Block 4", "Structure (SMILES)": "CN1CCN(c2ccc3nc(-c4c(N)c5c(F)cccc5[nH]c4=O)[nH]c3c2)CC1", "observed": "enzyme activity", "action": "inhibitor", "tested at": "0.5 µM", "reference": "control"}
{"target": "EPHB1 (Homo sapiens, UniProt P54762)", "remaining activity [%]": 58.1}
{"target": "CAMK2B (Homo sapiens, UniProt Q13554)", "remaining activity [%]": 85.6}
{"target": "TSSK2 (Homo sapiens, UniProt Q96PF2)", "remaining activity [%]": 80.6}
{"target": "Cyclin-dependent kinase 1, with cyclin B (CDK1, Homo sapiens, UniProt P06493)", "remaining activity [%]": 90.9}
{"note": "Excerpt of the above (block 1):"}
{"Compound": "O=S(=O)(NC1CCC(c2cc(F)ccc2F)(S(=O)(=O)c2ccc(Cl)cc2)CC1)C(F)(F)F (stereo not shown)", "inhibition [%]": -14.7}
{"Compound": "CCOc1ccc(S(=O)(=O)Nc2ccc(Cl)cc2C#Cc2cnc(C(=O)O)cc2OC)c2ncccc12", "inhibition [%]": -39.4}
{"Compound": "NC(=O)c1ccc2nc(-c3ccc(C4(N)CCC4)cc3)c(-c3ccccc3)n2n1", "inhibition [%]": -24.6}
{"Compound": "Nc1nc(NCc2ccccc2)nc(-c2cccc(CO)c2)n1", "inhibition [%]": 10.8}
{"Compound": "CS(=O)(=O)N1CCCC(NC(=O)[C@H](CCC2CCCCC2)NC(=O)c2ccc(CNC(=O)c3cnc4ccccn34)cc2)C1 (stereo partly shown)", "inhibition [%]": -7.56}
